{"data": "Measured values of several laboratories", "note": "± marks the error that the study gave."}
{"Compound": "Nc1ncc(-c2cc(-c3cnn(CC(F)(F)F)c3)ncc2F)nc1C(=O)NC1CNCC(F)C1 (centres unmarked)", "target or system": "ERBB3", "test": "KINOMEscan", "setting": "1 µM", "scale": "reference: DMSO control", "measurement": "remaining binding", "value": "100%"}
{"Compound": "O=c1[nH]cc(C(c2cccc(C(F)(F)F)c2)c2c[nH]c(=O)[nH]c2=O)c(=O)[nH]1", "target or system": "HIV-1 subtype C", "test": "p24 antigen production, p24 ELISA", "setting": "3.9 µg/mL", "measurement": "inhibition", "value": "< 25%"}
{"Compound": "Cc1ncsc1-c1ccc(C(C)NC(=O)C2CC(O)CN2C(=O)C(NC(=O)CCCCCCCCCCN2CCCC(Nc3ncc(Cl)c(Nc4ccccc4S(=O)(=O)C(C)C)n3)C2)C(C)(C)C)cc1 (centres unmarked)", "target or system": "22Rv1", "test": "RNA-seq, measured: PTPDC1 mRNA", "setting": "concentration not given", "scale": "reference: DMSO", "measurement": "log2 fold change", "value": -2.26}
{"Compound": "CC(=O)[O-].O.[Cu+2].[O-]c1ccc(Br)cc1C=NCCN1CCOCC1", "test": "superoxide scavenging", "setting": "160 µM", "measurement": "inhibition", "value": "49.2%"}
{"Compound": "CNS(=O)(=O)Nc1nccc(Cc2c(C)c3ccc(Oc4ncccc4F)cc3oc2=O)c1F", "target or system": "JeKo-1", "test": "cell viability", "setting": "7 days", "measurement": "IC50", "value": "> 1000 nM"}
{"Compound": "CC1=C[C@H](O/C=C2/C(=O)O[C@@H]3c4ccccc4C[C@H]23)OC1=O", "target or system": "Arabidopsis thaliana", "test system": "htl-3 mutant", "measurement": "maximum germination", "value": "9%"}
{"Compound": "C=CC(=O)Nc1cccc(Cn2ncc3cnc(Nc4cnn(CCOC)c4)nc32)c1", "target or system": "CSNK2A1 human", "test": "binding, KINOMEscan", "setting": "100 nM", "scale": "lower = stronger binding", "measurement": "percent of control", "value": "70%"}
{"Compound": "COC1CN([C@H]2CC[C@H]([C@@]3(C)Oc4c(Cl)cc(C(=O)NCc5c(SC)cc(C)[nH]c5=O)c(C)c4O3)CC2)C1", "test": "RNA-seq, measured: XKR6 mouse homolog", "test system": "mouse, HT-1376 xenograft, whole blood", "setting": "dose not given", "scale": "reference: vehicle", "measurement": "log2 fold change", "value": 1.32}
{"Compound": "CN1CCCNC(=O)c2cccc(c2)C(=O)NCCCN(C)CCCNc2cccc3c2C(=O)c2cccc(c2C3=O)NCCC1", "target or system": "SAS", "test": "RNA-Seq, measured: DCAF10 mRNA", "setting": "1 µM, 6 h", "scale": "reference: untreated cells", "measurement": "log2 fold change", "value": 0.718}
{"Compound": "C=C(NC(=O)c1csc(-c2nc3c(cc2O)-c2nc(cs2)C(=O)NC(C(C)O)C(=O)NC(=C(C)OC)c2nc(cs2)C(=O)NC2c4nc(cs4)C(=O)NC(COC(=O)c4c5c6c(cccc6n4O)COC(=O)C(OC4CC(C)(O)C(N(C)C)C(C)O4)C2OC5)c2nc-3cs2)n1)C(N)=O (centres unmarked)", "target or system": "Staphylococcus", "test system": "MRSE-8, mouse systemic infection", "setting": "intravenous", "scale": "survival", "measurement": "ED50", "value": "1.24 mg/kg"}
{"Compound": "COc1cc(O)ccc1CCC(c1ccc(O)cc1)c1cc2c(c(C)c1O)OC(c1ccc(O)cc1)CC2 (mixture of isomers)", "test": "measured: arachidonic acid", "test system": "human whole blood", "setting": "0.3 µM, together with: Escherichia coli", "measurement": "amount", "value": "514000 ± 51200 pg/mL blood"}
{"Compound": "CCN(CC)CC(=O)Nc1cccc(-n2cc(-c3ccc4ccc(-c5cn(-c6cccc(NC(=O)CN(CC)CC)c6)nn5)cc4c3)nn2)c1", "target or system": "RCC4", "test": "PCR angiogenesis array, measured: ANPEP", "setting": "5 x IC50, 6 h, normoxia", "scale": "reference: untreated", "measurement": "fold regulation", "value": -1.71}
{"Compound": "COCCOCCOCCNC(=O)Cc1cc(CC(=O)N[C@H]2C[C@H]3C(=O)Nc4cc(OCCOCCOCCOC)cc(n4)C(=O)N4CCC[C@H]4C(=O)Nc4cc(OCCOCCOCCOC)cc(n4)C(=O)N4CCC[C@H]4C(=O)Nc4cc(OCCOCCOCCOC)cc(n4)C(=O)N3C2)cc(CC(=O)N[C@H]2C[C@H]3C(=O)Nc4cc(OCCOCCOCCOC)cc(n4)C(=O)N4CCC[C@H]4C(=O)Nc4cc(OCCOCCOCCOC)cc(n4)C(=O)N4CCC[C@H]4C(=O)Nc4cc(OCCOCCOCCOC)cc(n4)C(=O)N3C2)c1", "test": "anion binding, ITC", "test system": "water/acetonitrile 70 vol% (87.1 mol%)", "setting": "298 K, together with: sodium sulfate", "measurement": "ΔG", "value": "-6.358 ± 0.0239 kcal/mol"}
{"Compound": "Cn1ncc2cc(-c3cncc(Cl)c3N3CCC4(CCNC4=O)CC3)ccc21", "target or system": "LS174T", "test": "microarray, measured: PAH", "setting": "concentration not given, 4 h", "scale": "reference: untreated cells", "measurement": "fold change in expression", "value": 1.3}
